Assay results of several laboratories.
Every numbered part comes from another study and shows a few of its results, in no order. Positions count from the first letter of the parent shown.
Chain of UniProt P08588 (whole entry, looked up): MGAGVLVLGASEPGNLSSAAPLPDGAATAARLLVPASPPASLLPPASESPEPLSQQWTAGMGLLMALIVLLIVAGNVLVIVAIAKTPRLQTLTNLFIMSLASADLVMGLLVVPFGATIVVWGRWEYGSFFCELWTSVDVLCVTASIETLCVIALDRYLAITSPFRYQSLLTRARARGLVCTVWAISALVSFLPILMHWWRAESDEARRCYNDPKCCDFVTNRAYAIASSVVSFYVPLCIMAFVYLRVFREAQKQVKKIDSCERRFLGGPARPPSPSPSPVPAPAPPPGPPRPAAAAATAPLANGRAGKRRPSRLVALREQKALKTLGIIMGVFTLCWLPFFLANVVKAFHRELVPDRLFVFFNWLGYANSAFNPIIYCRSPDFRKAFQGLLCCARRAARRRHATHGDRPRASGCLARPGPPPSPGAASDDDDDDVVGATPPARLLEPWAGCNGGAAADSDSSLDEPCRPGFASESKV
Chain of UniProt P9WI81 (whole entry, looked up): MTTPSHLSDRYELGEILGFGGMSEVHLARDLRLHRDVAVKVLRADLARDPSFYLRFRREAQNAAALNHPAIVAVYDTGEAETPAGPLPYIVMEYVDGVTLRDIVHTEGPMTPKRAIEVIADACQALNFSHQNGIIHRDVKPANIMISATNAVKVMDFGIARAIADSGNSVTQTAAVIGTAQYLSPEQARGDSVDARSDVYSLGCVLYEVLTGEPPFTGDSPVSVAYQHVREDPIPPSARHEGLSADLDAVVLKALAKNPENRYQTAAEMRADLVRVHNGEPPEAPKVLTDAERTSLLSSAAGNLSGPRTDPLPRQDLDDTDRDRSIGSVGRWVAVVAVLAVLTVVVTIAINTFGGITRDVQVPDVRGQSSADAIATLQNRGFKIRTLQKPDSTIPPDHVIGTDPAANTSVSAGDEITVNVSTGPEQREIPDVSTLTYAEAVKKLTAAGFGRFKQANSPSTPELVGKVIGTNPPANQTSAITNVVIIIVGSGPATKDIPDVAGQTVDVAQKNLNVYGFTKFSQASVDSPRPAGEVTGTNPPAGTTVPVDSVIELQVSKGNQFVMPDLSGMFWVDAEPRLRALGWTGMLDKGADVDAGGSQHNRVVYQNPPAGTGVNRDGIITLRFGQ

Study 1
Target: ABI1, truncated, D143A, DHFR fusion (Arabidopsis thaliana, UniProt P49597)
Method: DHFR PCA, dose-response
Matrix: yeast
Setting: Hill fit, not affinity, not high confidence
Together with: (+)-ABA, dose series
Reading: lower = more sensitive
Starting sequence: PYL1, truncated, DHFR fusion (Arabidopsis thaliana, UniProt Q8VZS8); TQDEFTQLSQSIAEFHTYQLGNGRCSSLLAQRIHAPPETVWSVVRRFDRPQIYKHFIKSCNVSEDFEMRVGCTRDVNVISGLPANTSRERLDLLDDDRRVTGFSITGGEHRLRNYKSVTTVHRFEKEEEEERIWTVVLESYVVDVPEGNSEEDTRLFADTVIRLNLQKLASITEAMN
| Variant | ABA EC50 [µM] |
| --- | --- |
| R46F | 200 |
| S117V | 766 |
| I33H | 554 |
| L112N | 13.1 |
| V121H | 173 |
| L91Y | 8.53 |
| P83R | 0.374 |
| L169W | 182 |

Study 2
Target: CEBPE, bZIP domain (human)
Method: DHFR protein complementation
Matrix: yeast
Setting: single substitutions, most at no-binding floor
Baseline: wild-type JUN-FOS pair
Reading: higher = stronger binding
Starting sequence: JUN, bZIP domain (human); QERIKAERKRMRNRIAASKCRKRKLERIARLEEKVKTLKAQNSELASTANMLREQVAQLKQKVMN; partner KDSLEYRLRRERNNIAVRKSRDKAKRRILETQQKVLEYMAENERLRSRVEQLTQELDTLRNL
| Variant | binding fitness |
| --- | --- |
| I28N | -1.25 natural log |
| V35S | -1.37 natural log |
| L59C | -1.23 natural log |
| I28Y | -1.35 natural log |
| E44Y | -1.34 natural log |
| T48V | -1.22 natural log |
| E54G | -1.26 natural log |
| M51S | -1.12 natural log |

Study 3
Target: CCND3, cyclin fold, Cln2 fusion (human)
Method: yeast growth competition, sequencing
Matrix: yeast
Setting: weak parent motif
Baseline: not given
Reading: higher = stronger binding
Starting sequence: viral docking peptide; YKVKRRLVFGADD
| Variant | normalised enrichment score |
| --- | --- |
| R5M | 0.153 |
| D13A | 0.0421 |
| K2S | -0.0801 |
| V8H | 0.315 |
| R5S | 0.0793 |
| F9M | 0.022 |
| A11C | 0.033 |
| R6L | 0.583 |
| V8C | 0.337 |
| V3P | 0.294 |
| A11G | 0.295 |
| R5C | -0.227 |
| D12S | 0.107 |
| R6M | 0.375 |
| A11F | 0.261 |
| K2V | 0.148 |
| A11I | 0.106 |
| F9D | 0.341 |
| R5N | -0.288 |
| V3C | 0.281 |
| G10T | 0.0324 |
| V3E | 0.0674 |
| V3H | -0.0114 |
| D12I | 0.0404 |
| D12H | -0.043 |

Study 4
Target: Cyclic AMP-responsive element-binding protein 1, full length (CREB1, Homo sapiens, UniProt P16220, residues 1-327)
Chain of UniProt P16220 (whole entry, looked up): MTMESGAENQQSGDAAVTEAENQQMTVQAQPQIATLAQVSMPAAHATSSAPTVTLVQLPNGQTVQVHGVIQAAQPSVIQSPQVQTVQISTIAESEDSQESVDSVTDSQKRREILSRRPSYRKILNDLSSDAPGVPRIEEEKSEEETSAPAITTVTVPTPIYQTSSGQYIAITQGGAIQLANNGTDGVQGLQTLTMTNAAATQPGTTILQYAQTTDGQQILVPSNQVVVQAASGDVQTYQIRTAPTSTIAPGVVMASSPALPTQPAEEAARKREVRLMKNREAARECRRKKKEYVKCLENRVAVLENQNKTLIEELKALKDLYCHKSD
Method: protein-binding microarray
Molecule type: hairpin DNA
Matrix: in vitro
Tested at: not given
Setting: whole hairpin DNA, median over replicate spots
Baseline: not given
Reading: higher = stronger binding
Constant ends, left off below: GAGGCCG … CGGCCTCACACTC
| Sequence | median fluorescence [a.u.] |
| --- | --- |
| GATGACGTAAGCCTCCTGGCTTACGTCATC | 18200 |
| GCTGACGTTAGCCTCCTGGCTAACGTCAGC | 4400 |
| GCTGACGTCCGCCTCCTGGCGGACGTCAGC | 4280 |
| ACGACATCGTGCCTCCTGGCACGATGTCGT (5mC at 9 15 29 35) | 2940 |
| TCTGACGTCAGCCTCCTGGCTGACGTCAGA | 12600 |
| GCTGACGCGAGCCTCCTGGCTCGCGTCAGC | 3790 |
| ACGACGTCATGCCTCCTGGCATGACGTCGT (5mC at 9 15 35) | 4430 |
| GCTGACGTCAGCCTCCTGGCTGACGTCAGC (5mC at 37) | 12700 |

Single results of other studies
| Compound | target | read-out | action | method | tested at | endpoint | result |
| --- | --- | --- | --- | --- | --- | --- | --- |
| Cc1noc([C@H]2C[C@@H](c3ccc(C(F)(F)F)cc3)CN(C(=O)N3CCS(=O)(=O)C3)C2)n1 | Serine/threonine-protein kinase PknB (pknB, Mycobacterium tuberculosis, UniProt P9WI81) | cell-free assay | – | competition with immobilised ligand | 1 µM | remaining binding | 82% |
| CC(Cc1cccc(C(F)(F)F)c1)NCCOC(=O)c1ccccc1 (stereo not drawn) | Beta-1 adrenergic receptor (ADRB1, Homo sapiens, UniProt P08588) | – | agonist | – | – | Emax | 97.2% |

Some of these lines once more (study 4):
| Sequence | median fluorescence [a.u.] |
| --- | --- |
| ACGACATCGTGCCTCCTGGCACGATGTCGT (5mC at 9 15 29 35) | 2940 |
| GCTGACGCGAGCCTCCTGGCTCGCGTCAGC | 3790 |
| GATGACGTAAGCCTCCTGGCTTACGTCATC | 18200 |
| GCTGACGTCCGCCTCCTGGCGGACGTCAGC | 4280 |
| GCTGACGTCAGCCTCCTGGCTGACGTCAGC (5mC at 37) | 12700 |
| GCTGACGTTAGCCTCCTGGCTAACGTCAGC | 4400 |
| TCTGACGTCAGCCTCCTGGCTGACGTCAGA | 12600 |
| ACGACGTCATGCCTCCTGGCATGACGTCGT (5mC at 9 15 35) | 4430 |
